Assay results from different studies.
Lines come from different studies, so protocols differ. Several values in a cell are separate wells, animals, samples, runs or records. Numbers after ± are the reported error.
F-box only protein 22: F-box only protein 22 (Homo sapiens, UniProt Q8NEZ5)
UniProt Q8NEZ5, sequence (whole entry, looked up): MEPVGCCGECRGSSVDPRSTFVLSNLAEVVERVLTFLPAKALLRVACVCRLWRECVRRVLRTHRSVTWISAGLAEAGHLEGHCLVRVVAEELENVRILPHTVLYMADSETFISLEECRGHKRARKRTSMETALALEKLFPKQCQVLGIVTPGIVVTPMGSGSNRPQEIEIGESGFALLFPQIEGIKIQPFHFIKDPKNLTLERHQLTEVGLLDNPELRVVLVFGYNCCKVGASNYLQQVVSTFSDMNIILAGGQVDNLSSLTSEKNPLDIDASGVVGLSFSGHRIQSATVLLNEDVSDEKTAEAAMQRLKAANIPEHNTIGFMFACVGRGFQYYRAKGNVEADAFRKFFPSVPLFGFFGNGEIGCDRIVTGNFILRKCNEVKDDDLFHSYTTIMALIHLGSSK
YWHAZ: 14-3-3 protein zeta/delta (YWHAZ, Homo sapiens, UniProt P63104)
UniProt P63104, sequence (whole entry, looked up): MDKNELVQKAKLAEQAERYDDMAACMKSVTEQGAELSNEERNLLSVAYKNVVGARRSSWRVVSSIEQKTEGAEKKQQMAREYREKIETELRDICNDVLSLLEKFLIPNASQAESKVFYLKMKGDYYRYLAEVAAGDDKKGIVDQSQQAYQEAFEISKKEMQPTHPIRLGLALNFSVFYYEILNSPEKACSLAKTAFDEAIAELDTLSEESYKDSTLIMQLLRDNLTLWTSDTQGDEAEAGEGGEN
UniProt Q9H2X3, sequence (whole entry, looked up): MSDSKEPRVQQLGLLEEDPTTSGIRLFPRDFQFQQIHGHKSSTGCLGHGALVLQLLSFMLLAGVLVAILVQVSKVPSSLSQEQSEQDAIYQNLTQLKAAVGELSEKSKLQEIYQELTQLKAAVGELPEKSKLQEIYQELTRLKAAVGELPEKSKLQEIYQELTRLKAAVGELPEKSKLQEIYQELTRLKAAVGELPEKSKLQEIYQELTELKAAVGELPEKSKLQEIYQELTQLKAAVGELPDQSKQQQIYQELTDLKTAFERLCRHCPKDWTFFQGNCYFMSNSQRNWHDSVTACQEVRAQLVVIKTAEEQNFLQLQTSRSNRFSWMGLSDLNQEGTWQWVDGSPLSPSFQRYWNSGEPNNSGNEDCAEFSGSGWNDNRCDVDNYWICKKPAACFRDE
UniProt Q13237, sequence (whole entry, looked up): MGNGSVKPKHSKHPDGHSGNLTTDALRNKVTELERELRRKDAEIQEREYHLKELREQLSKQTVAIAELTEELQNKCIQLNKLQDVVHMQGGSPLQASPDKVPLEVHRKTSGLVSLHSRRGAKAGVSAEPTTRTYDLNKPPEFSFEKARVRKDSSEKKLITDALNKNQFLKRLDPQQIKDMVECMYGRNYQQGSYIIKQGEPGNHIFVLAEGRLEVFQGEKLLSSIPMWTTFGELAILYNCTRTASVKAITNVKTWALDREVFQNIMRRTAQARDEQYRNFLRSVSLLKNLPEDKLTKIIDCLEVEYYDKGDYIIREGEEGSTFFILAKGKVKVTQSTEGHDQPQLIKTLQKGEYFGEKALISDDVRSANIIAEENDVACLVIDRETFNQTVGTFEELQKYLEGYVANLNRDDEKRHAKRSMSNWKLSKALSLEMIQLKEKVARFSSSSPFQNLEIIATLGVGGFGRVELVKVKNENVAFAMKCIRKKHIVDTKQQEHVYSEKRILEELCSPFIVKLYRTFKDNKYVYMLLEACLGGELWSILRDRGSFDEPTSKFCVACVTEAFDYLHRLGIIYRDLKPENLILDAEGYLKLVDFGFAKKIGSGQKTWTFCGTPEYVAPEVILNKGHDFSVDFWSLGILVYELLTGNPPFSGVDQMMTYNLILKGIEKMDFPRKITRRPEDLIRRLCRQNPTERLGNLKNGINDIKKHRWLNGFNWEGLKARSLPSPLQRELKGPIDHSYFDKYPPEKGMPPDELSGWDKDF
UniProt P21888, sequence (whole entry, looked up): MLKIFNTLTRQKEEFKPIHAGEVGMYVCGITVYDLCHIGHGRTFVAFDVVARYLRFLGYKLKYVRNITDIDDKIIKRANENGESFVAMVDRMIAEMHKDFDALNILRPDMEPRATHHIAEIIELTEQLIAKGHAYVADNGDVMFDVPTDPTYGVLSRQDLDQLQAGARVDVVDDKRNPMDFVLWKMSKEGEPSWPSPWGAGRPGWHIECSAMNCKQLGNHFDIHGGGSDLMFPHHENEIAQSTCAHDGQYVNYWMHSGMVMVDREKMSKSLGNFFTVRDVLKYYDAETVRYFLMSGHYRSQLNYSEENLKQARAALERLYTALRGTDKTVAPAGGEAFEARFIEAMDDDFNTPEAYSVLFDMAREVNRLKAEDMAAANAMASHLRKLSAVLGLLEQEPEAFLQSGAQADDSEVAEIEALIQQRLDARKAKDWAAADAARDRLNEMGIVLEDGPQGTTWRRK
UniProt P31947, sequence (whole entry, looked up): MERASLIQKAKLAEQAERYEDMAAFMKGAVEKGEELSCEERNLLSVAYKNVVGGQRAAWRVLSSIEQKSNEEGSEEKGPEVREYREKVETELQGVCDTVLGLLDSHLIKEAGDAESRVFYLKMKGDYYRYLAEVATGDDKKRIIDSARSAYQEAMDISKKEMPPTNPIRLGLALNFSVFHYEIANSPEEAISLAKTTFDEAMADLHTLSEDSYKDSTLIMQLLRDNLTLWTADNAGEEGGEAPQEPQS
UniProt P97287, sequence (152-308, looked up): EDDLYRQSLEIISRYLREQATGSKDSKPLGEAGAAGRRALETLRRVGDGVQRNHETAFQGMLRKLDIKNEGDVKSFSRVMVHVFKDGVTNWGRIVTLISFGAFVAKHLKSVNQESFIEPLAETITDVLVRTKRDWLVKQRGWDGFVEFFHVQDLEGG
UniProt P07342, sequence (whole entry, looked up): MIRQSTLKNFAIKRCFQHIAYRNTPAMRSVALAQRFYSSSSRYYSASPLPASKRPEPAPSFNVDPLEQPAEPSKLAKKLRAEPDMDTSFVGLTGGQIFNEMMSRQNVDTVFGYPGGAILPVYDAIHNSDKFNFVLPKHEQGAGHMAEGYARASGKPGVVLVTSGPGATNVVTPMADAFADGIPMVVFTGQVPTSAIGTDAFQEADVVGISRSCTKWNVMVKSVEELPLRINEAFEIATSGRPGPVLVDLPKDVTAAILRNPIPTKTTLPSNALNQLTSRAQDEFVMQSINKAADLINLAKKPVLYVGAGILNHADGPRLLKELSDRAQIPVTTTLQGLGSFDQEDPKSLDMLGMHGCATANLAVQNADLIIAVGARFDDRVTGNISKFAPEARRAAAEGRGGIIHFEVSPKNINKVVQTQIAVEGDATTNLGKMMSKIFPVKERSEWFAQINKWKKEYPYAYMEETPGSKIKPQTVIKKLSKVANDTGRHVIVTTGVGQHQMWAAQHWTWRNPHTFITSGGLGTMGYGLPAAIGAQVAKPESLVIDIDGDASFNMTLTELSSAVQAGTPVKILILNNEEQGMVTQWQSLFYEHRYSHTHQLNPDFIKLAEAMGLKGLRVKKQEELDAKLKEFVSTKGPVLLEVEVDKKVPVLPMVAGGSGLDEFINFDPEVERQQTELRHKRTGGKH
UniProt Q14145, sequence (whole entry, looked up): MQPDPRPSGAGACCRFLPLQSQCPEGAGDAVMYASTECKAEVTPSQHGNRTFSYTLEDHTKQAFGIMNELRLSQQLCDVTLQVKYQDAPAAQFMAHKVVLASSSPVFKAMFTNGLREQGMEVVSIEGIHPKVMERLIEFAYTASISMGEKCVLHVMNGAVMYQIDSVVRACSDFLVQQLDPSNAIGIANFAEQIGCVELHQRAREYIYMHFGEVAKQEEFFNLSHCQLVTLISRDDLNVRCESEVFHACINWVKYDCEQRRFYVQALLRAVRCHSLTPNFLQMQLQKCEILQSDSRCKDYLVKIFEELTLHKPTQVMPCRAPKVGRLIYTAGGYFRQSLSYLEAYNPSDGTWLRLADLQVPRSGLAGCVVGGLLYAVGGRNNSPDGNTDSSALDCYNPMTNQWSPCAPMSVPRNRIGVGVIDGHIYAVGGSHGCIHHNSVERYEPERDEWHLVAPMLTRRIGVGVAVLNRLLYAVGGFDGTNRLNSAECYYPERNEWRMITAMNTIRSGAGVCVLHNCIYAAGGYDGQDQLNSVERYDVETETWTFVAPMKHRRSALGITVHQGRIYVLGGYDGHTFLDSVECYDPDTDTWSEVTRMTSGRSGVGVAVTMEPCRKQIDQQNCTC
UniProt P46937, sequence (whole entry, looked up): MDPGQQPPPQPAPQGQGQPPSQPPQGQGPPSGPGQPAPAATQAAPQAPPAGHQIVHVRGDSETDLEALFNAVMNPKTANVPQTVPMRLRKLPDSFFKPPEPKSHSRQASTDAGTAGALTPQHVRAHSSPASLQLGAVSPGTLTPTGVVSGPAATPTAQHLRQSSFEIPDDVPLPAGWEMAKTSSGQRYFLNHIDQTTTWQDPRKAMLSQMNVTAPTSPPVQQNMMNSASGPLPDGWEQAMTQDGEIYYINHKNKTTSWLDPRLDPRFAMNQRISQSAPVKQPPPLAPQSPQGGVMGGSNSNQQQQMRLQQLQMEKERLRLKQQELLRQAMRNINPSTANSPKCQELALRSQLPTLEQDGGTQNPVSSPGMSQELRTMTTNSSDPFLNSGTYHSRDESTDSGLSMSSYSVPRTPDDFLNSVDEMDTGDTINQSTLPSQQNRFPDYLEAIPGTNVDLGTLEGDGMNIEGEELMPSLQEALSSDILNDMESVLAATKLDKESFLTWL
UniProt P29066, sequence (whole entry, looked up): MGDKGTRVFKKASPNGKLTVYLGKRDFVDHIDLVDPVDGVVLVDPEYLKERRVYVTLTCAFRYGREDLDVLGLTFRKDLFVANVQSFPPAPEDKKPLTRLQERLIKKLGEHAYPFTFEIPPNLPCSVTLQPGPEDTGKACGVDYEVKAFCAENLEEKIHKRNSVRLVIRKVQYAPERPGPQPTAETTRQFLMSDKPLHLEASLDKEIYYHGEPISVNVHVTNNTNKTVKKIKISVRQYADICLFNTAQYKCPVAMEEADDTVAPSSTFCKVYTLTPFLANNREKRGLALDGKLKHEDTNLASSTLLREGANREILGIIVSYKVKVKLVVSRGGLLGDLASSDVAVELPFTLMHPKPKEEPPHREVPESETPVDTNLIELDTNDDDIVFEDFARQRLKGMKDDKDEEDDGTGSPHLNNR

For `N=C(N)NCc1cn([C@@H]2[C@@H](OCCCl)O[C@H](CO)[C@@H](O)[C@@H]2O)nn1`, the Kd was 13.3 µM and 13.6 µM and 11.3 µM (C-type lectin domain family 4 member M, extracellular domain (CLEC4M, Homo sapiens, UniProt Q9H2X3); isothermal titration calorimetry).
The Kd of `O=C(N[C@@H]1c2ccccc2C[C@H]1N1CCCC1)c1ccc(-c2ccnc3[nH]ccc23)nc1` is reported as 0.105 µM (PRKG2 (Homo sapiens, UniProt Q13237); binding, competition with immobilised ligand).
`CC(=O)N[C@@H](CCC(=O)O)C(=O)N[C@@H](CCC(=O)O)C(=O)N[C@@H](CCC(=O)O)C(=O)N[C@@H](Cc1c[nH]c2ccccc12)C(=O)N[C@@H](C)C(=O)N[C@@H](CCCNC(=N)N)C(=O)N[C@@H](CCC(=O)O)C(=O)N[C@H](C)C(=O)NCC(=O)N[C@@H](C)C(=O)N[C@@H](CCC(N)=O)C(=O)N[C@@H](CC(C)C)C(=O)N[C@@H](CCCNC(=N)N)C(=O)N[C@@H](CCCNC(=N)N)C(=O)N[C@@H](C)C(=O)N[C@@H](C)C(=O)N[C@@H](CC(=O)O)C(=O)N[C@@H](CC(=O)O)C(=O)N[C@@H](CC(C)C)C(=O)N[C@@H](CC(N)=O)C(=O)N[C@@H](C)C(=O)N[C@@H](CCC(N)=O)C(=O)N[C@@H](Cc1ccc(O)cc1)C(=O)N[C@@H](CCC(=O)O)C(=O)N[C@@H](CCCNC(=N)N)C(=O)N[C@@H](CCCNC(=N)N)C(=O)N[C@@H](CCCNC(=N)N)C(N)=O` has a Kd of 0.5 µM (Induced myeloid leukemia cell differentiation protein Mcl-1 homolog, residues 152-308 (Mus musculus, UniProt P97287); surface plasmon resonance).
For `CSCC[C@@H]1NC(=O)[C@H](CCC(N)=O)NC(=O)[C@H](CCCCN)NC(=O)[C@@H](NC(=O)CN)CSSC[C@@H]2NC(=O)CNC(=O)[C@H](C)NC(=O)[C@H](CC(C)C)NC(=O)[C@@H]3CSSC[C@@H](C(=O)NCC(=O)O)NC(=O)[C@H](Cc4ccccc4)NC(=O)CNC(=O)[C@H](CC(N)=O)NC(=O)[C@@H]4CCCN4C(=O)CNC(=O)[C@H](CSSC[C@H](NC(=O)[C@H](CCCNC(=N)N)NC(=O)[C@H](CCC(N)=O)NC(=O)[C@H](CCCNC(=N)N)NC(=O)[C@H](CCCCN)NC(=O)[C@H](C(C)C)NC(=O)[C@H](CCC(N)=O)NC(=O)[C@H](CC(N)=O)NC1=O)C(=O)N[C@@H](CCCCN)C(=O)N[C@@H](CCC(N)=O)C(=O)N[C@@H](CC(=O)O)C(=O)N[C@@H](CO)C(=O)N[C@@H](CC(=O)O)C(=O)N3)NC(=O)[C@H](C(C)C)NC2=O`, the Kd was 0.0207 µM (Low-density lipoprotein receptor-related protein 6, E1 domain (LRP6, Homo sapiens, UniProt O75581); binding, SPR; pH 7.5).
`CC(C)C[C@H](NC(=O)[C@H](CS)NC(=O)[C@H](CC(=O)O)NC(=O)[C@H](C)NC(=O)[C@H](CO)NC(=O)[C@H](Cc1c[nH]cn1)NC(=O)[C@H](CC(=O)O)NC(=O)[C@H](CO)NC(=O)[C@@H](NC(=O)CNC(=O)[C@H](CC(=O)O)NC(=O)[C@H](CC(=O)O)NC(=O)[C@H](CC(C)C)NC(=O)[C@@H](N)CC(=O)O)C(C)C)C(=O)N[C@@H](CC(=O)O)C(=O)N[C@@H](CCC(N)=O)C(=O)N[C@@H](CC(=O)O)C(=O)N[C@@H](CO)C(=O)O` has a Kd of 1.09 ± 0.05 µM (Beta-arrestin-1 (Arrb1, Rattus norvegicus, UniProt P29066); isothermal titration calorimetry; pH 8.0, 298 K).
The Kd of `CC(C)C[C@H](NC(=O)CNC(=O)[C@H](C)NC(=O)[C@H](CC(=O)O)NC(=O)[C@H](C)NC(=O)[C@H](C)NC(=O)[C@@H]1CCCN1C(=O)[C@H](CCCCN)NC(=O)CNC(=O)[C@@H]1CCCN1C(=O)[C@@H]1CCCN1C(=O)[C@@H]1CCCN1C(=O)[C@H](CCC(=O)O)NC(=O)CN)C(=O)N[C@H](C(=O)O)C(C)C` is reported as 11 µM (F-box only protein 22; binding, SPR).
`CC(=O)NC1C(O)OC(CO)C(OC2OC(CO)C(OC3OC(CO)C(O)C(O)C3O)C(O)C2O)C1O` (stereo not drawn) has a Kd of 0.4 µM (sly (Streptococcus suis, UniProt Q55996); binding).
`CC(C)[C@H](NC(=O)[C@H](C)NC(=O)CNC(=O)[C@H](C)NC(=O)[C@H](CC(=O)O)NC(=O)[C@H](CC(=O)O)NC(=O)[C@H](C)NC(=O)[C@@H]1CCCN1C(=O)[C@H](CCCCN)NC(=O)CNC(=O)[C@@H]1CCCN1C(=O)[C@@H]1CCCN1C(=O)[C@@H]1CCCN1C(=O)[C@H](CCC(=O)O)NC(=O)CN)C(=O)O` gave a Kd of 22 µM (F-box only protein 22; binding, SPR).
`CC(=O)N[C@@H](CCCNC(=N)N)C(=O)N[C@H](C(=O)N1CCC[C@H]1C(=O)N[C@@H](COP(=O)(O)O)C(=O)N[C@@H](CC(C)C)C(=O)N1CCC[C@H]1C(=O)N[C@H](C(=O)N1CCC[C@H]1C(c1ccccc1)c1ccccc1)C(C)C)[C@@H](C)O` has a Kd of 2.4 µM (YWHAZ; isothermal titration calorimetry; second duplicate).
`CC[C@H](C)[C@H](NC(=O)[C@H](CO)NC(=S)Nc1ccc2c(c1)C(=O)OC21c2ccc(O)cc2Oc2cc(O)ccc21)C(=O)N[C@@H](CCC(=O)O)C(=O)N[C@@H](CCCCN)C(=O)NCC(=O)NCC(=O)N[C@@H](CCP(=O)(O)O)C(=O)N[C@@H](CC(C)C)C(=O)N1CCC[C@H]1C(=O)N[C@@H](CCCCN)C(=O)N[C@H](C(=O)N[C@@H](Cc1c[nH]c2ccccc12)C(=O)N[C@@H](CC(C)C)C(=O)N[C@H](C(=O)N1CCC[C@H]1C(=O)N[C@@H](CCCNC(=N)N)C(=O)O)C(C)C)C(C)C` gave a Kd of 268 µM (SFN (Homo sapiens, UniProt P31947); binding, fluorescence anisotropy; pH 7.5, FITC-labelled phosphopeptide titration).
With `CCCC1CC(=O)N[C@@H](CC(=O)O)C(=O)N2CC(C(C)CO)C[C@H]2C(=O)N[C@@H](CCC(=O)O)C(=O)N[C@@H]([C@@H](C)O)C(=O)NCC(=O)N[C@@H](CCC(=O)O)C(=O)N1` (stereo partly drawn) the Kd was 0.0135 µM (KEAP1 (Homo sapiens, UniProt Q14145); binding, MST).
With `CC(C)C[C@H](NC(=O)[C@H](CCCCN)NC(=O)CNC(=O)[C@H](Cc1ccccc1)NC(=O)[C@H](CO)NC(=O)[C@H](Cc1c[nH]c2ccccc12)NC(=O)CNC(=O)[C@H]1CCCN1C(=O)[C@H](N)CC(=O)O)C(=O)N[C@@H](Cc1c[nH]cn1)C(=O)N[C@@H](Cc1c[nH]c2ccccc12)C(=O)N1CCC[C@H]1C(=O)O` the Kd was 0.01 µM (VSIR (Homo sapiens, UniProt Q9H7M9); binding, microscale thermophoresis).
The Kd of `CC(=O)N[C@@H](CCCNC(=N)N)C(=O)N[C@H](C(=O)N1CCC[C@H]1C(=O)N[C@@H](COP(=O)(O)O)C(=O)N[C@@H](CC(C)C)C(=O)N1CCC[C@H]1C(=O)N[C@H](C(=O)N1CCC[C@H]1C(c1ccccc1)c1ccccc1)[C@@H](C)O)[C@@H](C)O` is reported as 4.15 ± 0.45 µM (YWHAZ; isothermal titration calorimetry).
For `C=C[C@@]1(C)CC[C@@H](C(=C)C)[C@H](c2c[nH]c3ccccc23)[C@H]1N=C=S`, the Kd was 9.13 µM (YAP1 (Homo sapiens, UniProt P46937); binding, BLI).
For `O=C(O)c1ccc(O)c(O)c1`, Kd read “no binding” (R15K mutant protein, Streptomyces coelicolor; isothermal titration calorimetry; 1.5 mM).
`C#CCN1C(=O)C(CC#C)(C(=O)OCC)Oc2ccccc21` (stereo not drawn) has a Kd of 133 µM (Acetolactate synthase catalytic subunit, mitochondrial (Saccharomyces cerevisiae S288c, UniProt P07342); binding, MST).
With `C[C@H]1NC(=O)[C@H](CCC(=O)N[C@@H](CCCCN)C(N)=O)NC(=O)[C@@H](C)NC(=O)[C@H](Cc2ccc(F)cc2)NC(=O)[C@H](Cc2c[nH]c3ccccc23)NC(=O)[C@H](CCCNC(=N)N)NC(=O)[C@H](Cc2ccc(O)cc2)NC(=O)[C@H](CCCNC(=N)N)NC1=O` the Kd was 1.4 µM (cysS (Escherichia coli, UniProt P21888); binding).
`CC[C@H](C)[C@H](NC(=O)[C@@H](N)CCCCN)C(=O)N1CCC[C@H]1C(=O)N[C@@H](Cc1ccc(O)cc1)C(=O)N[C@@H](Cc1ccccc1)C(=O)N[C@@H](Cc1c[nH]cn1)C(=O)N[C@@H](C)C(=O)NCC(=O)NCC(=O)N[C@@H](CO)C(=O)N[C@@H](CCCCN)C(=O)N[C@@H](CS)C(=O)N[C@@H](CO)C(=O)N[C@H](C(=O)N[C@@H](Cc1ccc(O)cc1)C(=O)N1CCC[C@H]1C(=O)N[C@@H](CC(C)C)C(=O)N1CCC[C@H]1C(=O)N[C@@H](CCC(N)=O)C(=O)N1CCC[C@H]1C(=O)N[C@@H](CO)C(=O)O)[C@@H](C)OP(=O)(O)O` has a Kd of 3.2 ± 0.4 µM (YWHAZ; ITC; 37 °C, one-site fit, poor fit, added: phosphorylated PRLR peptide).

Repeated from above:
For `O=C(O)c1ccc(O)c(O)c1`, Kd read “no binding” (R15K mutant protein, Streptomyces coelicolor; isothermal titration calorimetry; 1.5 mM).
